Experimental data pooled from the literature.
Compare with care: the assays were run in different laboratories. pIC50: −log10 of the molar value.
Target: Cholinesterase (BCHE, Homo sapiens, UniProt P06276)
Chain of UniProt P06276 (whole entry, looked up): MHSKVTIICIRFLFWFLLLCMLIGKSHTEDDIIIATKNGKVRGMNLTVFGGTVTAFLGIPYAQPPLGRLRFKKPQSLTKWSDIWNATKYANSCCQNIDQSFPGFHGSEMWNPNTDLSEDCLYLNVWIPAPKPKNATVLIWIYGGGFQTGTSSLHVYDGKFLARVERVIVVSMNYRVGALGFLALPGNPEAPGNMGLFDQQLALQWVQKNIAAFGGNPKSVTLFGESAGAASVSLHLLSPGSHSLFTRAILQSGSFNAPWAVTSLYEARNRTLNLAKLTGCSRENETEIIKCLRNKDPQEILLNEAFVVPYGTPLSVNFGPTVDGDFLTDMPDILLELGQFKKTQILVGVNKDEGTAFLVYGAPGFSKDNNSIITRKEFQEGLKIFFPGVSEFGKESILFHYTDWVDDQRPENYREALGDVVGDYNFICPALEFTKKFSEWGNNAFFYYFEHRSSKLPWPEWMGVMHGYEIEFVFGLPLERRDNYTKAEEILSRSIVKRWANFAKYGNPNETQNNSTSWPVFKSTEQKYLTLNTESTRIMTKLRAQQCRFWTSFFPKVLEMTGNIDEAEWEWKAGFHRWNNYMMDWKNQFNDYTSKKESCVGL
Observed: enzyme activity
Mode: inhibitor

| Compound | assay | setting | pIC50 |
| --- | --- | --- | --- |
| COC1(c2ccccc2)CC(=O)c2c(cc3c(c2O)C=CC(C)(C)O3)O1 (stereo not drawn) | Ellman | – | < 3.70 |
| CCN(CCCCOc1ccc(CCC(=O)N2CCC(Cc3ccccc3)CC2)cc1OC)Cc1ccccc1 | Ellman | – | 7.18 |
| O=C(O)/C=C/c1cc(O)cc(O)c1 | Ellman | – | 3.36 |
| COc1ccc(-c2coc3cc(OCCN4CCCC[C@@H]4C)ccc3c2=O)cc1 | Ellman | – | 4.59 |
| CC1(C)C=Cc2c(cc(O)c3c(=O)cc(-c4ccccc4)oc23)O1 | – | – | 5.12 |
| COc1cc2c(cc1OC)C(=O)/C(=C\c1ccc(N3CCCCC3)cc1)C2 | Ellman | – | 3.25 |
| CCOc1ccc2nc3cc(N)ccc3c(N)c2c1 | Ellman | – | 5.62 |
| CN1CC[C@]2(C)c3cc(OC(=O)Nc4ccccc4)ccc3NC12 (single isomer, unassigned; (+)) | Ellman | pH 8, with preincubation | < 5.00 |
| COc1cc2c(cc1OC)C(=O)/C(=C\c1ccc(Br)cc1)C2 | Ellman | – | < 3.00 |
| C#CCN1CCN(CCCOc2ccc3nc(Cl)c(/C=[N+](\[O-])C(C)(C)C)cc3c2)CC1 | Ellman | – | 5.08 |
| COC(=O)c1ccc(-n2nc(-c3ccccc3O)nc2-c2ccccc2O)cc1 | Ellman | – | 6.35 |
| CC(C)(O)c1cc2c(ccc3c(=O)cc(-c4ccccc4)oc32)o1 | Ellman | – | < 3.70 |
| COc1cc2c(cc1OC)C(=O)/C(=C\c1ccccc1)C2 | Ellman | – | < 3.00 |
| O=c1c(O)c(-c2cc(O)ccc2O)oc2cc(O)cc(O)c12 | Ellman | – | 3.52 |
| CO/C(=C\C(=O)c1ccc2occc2c1OC)c1ccccc1 | Ellman | – | 3.97 |
| COc1cc2c(cc1OC)C(=O)/C(=C\c1ccc(-n3ccnc3)cc1)C2 | Ellman | – | 3.30 |
| Oc1ccccc1-c1nc(-c2ccccc2O)n(-c2ccc(-c3nnc4n3N=C(c3ccccc3)CS4)cc2)n1 | Ellman | – | 5.44 |
| O=C(NCc1ccc[n+](Cc2ccc(Cl)cc2Cl)c1)c1ccc(CN2C(=O)c3ccccc3C2=O)cc1 | Ellman | – | 5.14 |
| Fc1ccc(N2CCN(Cc3nnc(-c4ccccc4)o3)CC2)cc1 | Ellman | – | < 5.00 |
| CC12CC(c3ccoc3)OC(=O)C1CCC1(C)C2C2OC(=O)C1(O)C1OC21 (stereo not drawn) | Ellman | – | 2.96 |
| COc1cc2c(=O)cc(-c3ccccc3)oc2c2c1OC(C)(C)C=C2 | Ellman | – | 5.94 |
| CCS(=O)(=O)N1CCN(CC(=O)Nc2ccc(/C=C/C(=O)c3ccc(OC)c(OC)c3)cc2)CC1 | Ellman | – | < 3.00 |
| Oc1ccc(C2=Nn3c(nnc3-c3ccc(-n4nc(-c5ccccc5O)nc4-c4ccccc4O)cc3)SC2)cc1 | Ellman | – | 6.77 |
| COc1cc2c(cc1OC)C(=O)/C(=C\c1ccc([N+](C)(C)C)cc1)C2 | – | – | < 3.00 |
| O=C(NCc1ccc[n+](Cc2ccc(C(F)(F)F)cc2)c1)c1ccc(CN2C(=O)c3ccccc3C2=O)cc1 | Ellman | – | 6.74 |
| CC1(C)C=Cc2c(ccc3c(=O)cc(-c4ccccc4)oc23)O1 | Ellman | – | 5.39 |
| CSc1ccc(C2=Nn3c(nnc3-c3ccc(-n4nc(-c5ccccc5O)nc4-c4ccccc4O)cc3)SC2)cc1 | Ellman | – | 6.05 |
| COc1cc2c(cc1OC)C(=O)/C(=C\c1ccc(N(C)C)cc1)C2 | Ellman | – | < 3.00 |
| O=C(NCc1ccc[n+](Cc2ccc(Cl)cc2)c1)c1ccc(CN2C(=O)c3ccccc3C2=O)cc1 | Ellman | – | 5.89 |
| O=[N+]([O-])c1cccc(C2=Nn3c(nnc3-c3ccc(-n4nc(-c5ccccc5O)nc4-c4ccccc4O)cc3)SC2)c1 | Ellman | – | 5.16 |

Some of these lines once more:
| Compound | assay | setting | pIC50 |
| --- | --- | --- | --- |
| COc1cc2c(cc1OC)C(=O)/C(=C\c1ccc(N3CCCCC3)cc1)C2 | Ellman | – | 3.25 |
| CCOc1ccc2nc3cc(N)ccc3c(N)c2c1 | Ellman | – | 5.62 |
| CN1CC[C@]2(C)c3cc(OC(=O)Nc4ccccc4)ccc3NC12 (single isomer, unassigned; (+)) | Ellman | pH 8, with preincubation | < 5.00 |
| COc1cc2c(cc1OC)C(=O)/C(=C\c1ccc(Br)cc1)C2 | Ellman | – | < 3.00 |
